# Results pooled from the literature.
# Parts stem from different laboratories: compare values within a part only. Changes are numbered by the printed parent chain.

# Sample 1
# Target: Ras GTPase-activating protein-binding protein 1, RRM domain (G3BP1, Homo sapiens, UniProt Q13283)
# Sequence of UniProt Q13283 (whole entry, looked up): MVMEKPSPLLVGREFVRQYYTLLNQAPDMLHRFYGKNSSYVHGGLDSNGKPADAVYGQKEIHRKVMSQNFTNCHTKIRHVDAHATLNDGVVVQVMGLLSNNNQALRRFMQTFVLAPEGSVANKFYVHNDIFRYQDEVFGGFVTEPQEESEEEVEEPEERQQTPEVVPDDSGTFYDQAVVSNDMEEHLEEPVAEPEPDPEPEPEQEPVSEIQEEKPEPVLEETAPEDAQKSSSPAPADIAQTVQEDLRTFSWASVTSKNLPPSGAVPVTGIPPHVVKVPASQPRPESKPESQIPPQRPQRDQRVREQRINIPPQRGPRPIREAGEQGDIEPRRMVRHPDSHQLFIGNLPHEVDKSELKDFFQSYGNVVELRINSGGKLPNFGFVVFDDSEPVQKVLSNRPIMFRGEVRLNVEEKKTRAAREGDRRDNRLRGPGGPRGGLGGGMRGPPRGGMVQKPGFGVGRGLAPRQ
# Technique: RNA Bind-n-Seq
# Form: RNA
# Medium: in vitro
# Concentration: 1 µM
# Setting: whole 134-nt RNA, ends assumed
# Added: 150 mM KCl
# Relative to: input library
# Direction: higher = stronger binding
Oligonucleotide,log2 enrichment
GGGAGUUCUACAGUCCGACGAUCUGGCCCUGGUGGCAUGCGGGGAGGAAGAGGUGGCCUCAUGGAUCGUGGUGGUCCCGGUGGAAUGUUCAGAGGUGGCAGUGGUGGAGACAGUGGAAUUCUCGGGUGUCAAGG,1.45
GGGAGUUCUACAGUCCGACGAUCCUCAAGUCCUGUGCUACACAUCGUAUGUACCGAAUCGGAAGGGGAAGGAAGGGGAAAGUAUUAUGUUACGCCGUUCGGAUCUGCACUUCCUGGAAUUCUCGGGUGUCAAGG,0.141
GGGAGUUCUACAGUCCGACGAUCUUCCCUCUGUUUUAUUUUUCCCCCGUGUGUCCCUACUAUGGUCAGAAAGCCUGUUGUGUCCACCAUCUCCAAAGGAGGUUACCUGCAGGGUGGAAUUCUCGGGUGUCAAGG,-0.468
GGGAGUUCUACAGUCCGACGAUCACCAUGCAGGUGGGCAGCUUUGGGAAGUGGGGCAAGGGGGGGAUAGGGAGGGGGGUAACACUUUGGGAACAGGUGGUCCCAGGUCGUUUCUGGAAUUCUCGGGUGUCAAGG,-0.543
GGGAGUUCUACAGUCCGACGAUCCAAGUCCUGUGCUACACAUCGUAUGUACCGAAUCGGGUGGGUUUGGGUUUUUGGGAAAGUAUUAUGUUACGCCGUUCGGAUCUGCACUUCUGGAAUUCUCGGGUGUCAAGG,0.632
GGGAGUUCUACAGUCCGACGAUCUAACUUUAGAGGAGGAUCUGAUGGAUAUGGCAGUGGACGUGGAUUUGGGGAUGGCUAUAAUGGGUAUGGAGGAGGACCUGGAGUUGGCAAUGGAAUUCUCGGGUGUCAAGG,-0.406
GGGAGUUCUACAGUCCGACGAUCUAACUUUAGAGGAGGAUCUGAUGGAUAUGGCAGUGGACGUGGAUUUGGGGAUGGCUAUAAUGGGUAUGGAGGAGGACCUGGAGGGGGCAAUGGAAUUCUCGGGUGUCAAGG,-0.415
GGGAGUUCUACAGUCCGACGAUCUGUCCAGCUCUGAAGGGCAAAGUGCAGAAGAUCCUAAUCUGGAAGUGGGGUCAGCCACCAUCUCCCACACCAGUGCCUCGGCCUCCAGAUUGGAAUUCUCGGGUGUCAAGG,-0.0753

# Sample 2
# Target: Histone acetyltransferase KAT6A, winged helix 2, GST fusion (KAT6A, Homo sapiens, UniProt Q92794, residues 85-181)
# Technique: protein binding microarray
# Form: double-stranded DNA, one strand shown
# Medium: in vitro
# Concentration: not given
# Setting: 8-mer, flanks averaged, mean of 2 arrays, mostly near background
# Relative to: not given
# Direction: higher = stronger binding
# Construct (chain): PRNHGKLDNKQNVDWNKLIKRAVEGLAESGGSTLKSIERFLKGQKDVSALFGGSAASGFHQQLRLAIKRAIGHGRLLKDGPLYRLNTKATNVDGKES
Oligonucleotide,E-score
CCCGATGA,0.207
CGAGGCAC,0.105
ATTGACGC,0.0628
ACTGTGAT,-0.17
GACCCGGA,0.089

# Sample 3
# Target: CCNB3, cyclin fold, Cln2 fusion (human)
# Technique: yeast growth competition, sequencing
# Medium: yeast
# Setting: weak parent motif
# Relative to: not given
# Direction: higher = stronger binding
# Starting sequence: PKN2 docking peptide (human); VSAVQKLDFSDTM; partner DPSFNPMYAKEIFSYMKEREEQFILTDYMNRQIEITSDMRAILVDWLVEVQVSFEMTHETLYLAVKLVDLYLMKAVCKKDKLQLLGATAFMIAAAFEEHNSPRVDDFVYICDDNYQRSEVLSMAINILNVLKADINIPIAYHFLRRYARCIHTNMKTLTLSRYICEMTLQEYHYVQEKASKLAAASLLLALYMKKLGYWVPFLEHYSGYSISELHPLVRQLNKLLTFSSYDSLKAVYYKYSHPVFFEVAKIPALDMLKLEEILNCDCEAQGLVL
Variant,normalised enrichment score
VSAVQKLPFSDTM [D8P],0.226
VSARQKLDFSDTM [V4R],-0.111
VSAVQKLDFSDWM [T12W],0.791
VSAVQKLDFSDSM [T12S],0.489
VSAVQKLDFSDNM [T12N],0.16

# Further values, each from its own experiment
Molecule,target,assay,test system,conditions,scale,endpoint,value
"PhoQ, residues 284 288 289 292 302 303 NSMLDC","PhoP, residues 12 14 15 18 19 IQSYL (Escherichia coli, UniProt P23836)","Sort-seq, refers to: YFP reporter",E. coli,"PhoQ-PhoP variant library, added: 10 µM Mg2+","relative to: high Mg2+ state, higher = stronger signaling",fold induction,18.9

# Some of these lines once more (sample 1):
Oligonucleotide,log2 enrichment
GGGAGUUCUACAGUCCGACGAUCUUCCCUCUGUUUUAUUUUUCCCCCGUGUGUCCCUACUAUGGUCAGAAAGCCUGUUGUGUCCACCAUCUCCAAAGGAGGUUACCUGCAGGGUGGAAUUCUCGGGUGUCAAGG,-0.468
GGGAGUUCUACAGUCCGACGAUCCAAGUCCUGUGCUACACAUCGUAUGUACCGAAUCGGGUGGGUUUGGGUUUUUGGGAAAGUAUUAUGUUACGCCGUUCGGAUCUGCACUUCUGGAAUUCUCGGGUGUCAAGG,0.632
